{"data": "Measured values from different studies", "note": "Each line is one published result; not all experiments were run side by side."}
{"SMILES": "C[C@@H](O)[C@H](NC(=O)[C@H](Cc1c[nH]c2ccccc12)NC(=O)[C@H](Cc1c[nH]c2ccccc12)NC(=O)[C@H](Cc1c[nH]c2ccccc12)NC(=O)[C@@H](NC(=O)[C@H](Cc1c[nH]c2ccccc12)NC(=O)[C@H](CCCNC(=N)N)NC(=O)[C@@H](N)CCCNC(=N)N)[C@@H](C)O)C(=O)N[C@@H](Cc1c[nH]c2ccccc12)C(=O)N[C@@H](CCCNC(=N)N)C(=O)N[C@@H](CCCNC(=N)N)C(N)=O", "organism": "Candida parapsilosis", "test system": "CGMCC 2.399", "conditions": "48 h, 37 °C", "MIC": "16 µM"}
{"SMILES": "CC(C)[C@H](NC(=O)[C@H](CCCNC(=N)N)NC(=O)[C@H](Cc1c[nH]c2ccccc12)NC(=O)[C@H](CCCNC(=N)N)NC(=O)[C@H](Cc1c[nH]c2ccccc12)NC(=O)[C@H](Cc1c[nH]c2ccccc12)NC(=O)[C@H](Cc1c[nH]c2ccccc12)NC(=O)[C@H](CCCNC(=N)N)NC(=O)[C@H](Cc1c[nH]c2ccccc12)NC(=O)[C@H](CCCNC(=N)N)NC(=O)CN)C(N)=O", "organism": "Candida albicans", "test": "broth microdilution", "test system": "CGMCC 2.209, RPMI 1640-MOPS", "conditions": "48 h, 30 °C, added: CaCl2 2 mM", "MIC": "32 µM"}
{"SMILES": "CO[C@H]1/C=C/O[C@@]2(C)Oc3c(C)c(O)c4c(c3C2=O)C2=NC3(CCN(CCn5c([N+](=O)[O-])cnc5C)CC3)NC2=C(NC(=O)/C(C)=C\\C=C\\[C@H](C)[C@H](O)[C@@H](C)[C@@H](O)[C@@H](C)[C@H](OC(C)=O)[C@@H]1C)C4=O", "organism": "Helicobacter pylori", "test": "agar dilution", "test system": "metronidazole-resistant rdxA R16S", "MIC": "≤ 0.002 µg/mL"}
{"SMILES": "CC[C@H](C)[C@H](NC(=O)[C@H](CCCCN)NC(=O)[C@@H](NC(=O)[C@H](Cc1ccc(O)cc1)NC(=O)[C@H](CCCCN)NC(=O)[C@H](CCCCN)NC(=O)CNC(=O)[C@H](CCCCN)NC(=O)[C@@H](NC(=O)[C@H](C)NC(=O)[C@H](CC(C)C)NC(=O)[C@H](Cc1c[nH]c2ccccc12)NC(=O)CNC(=O)[C@@H](NC(=O)[C@H](Cc1ccccc1)NC(=O)[C@H](CCCCN)NC(=O)[C@H](CC(C)C)NC(=O)[C@H](Cc1ccccc1)NC(=O)[C@H](C)NC(=O)CNC(=O)[C@@H](N)CCSC)C(C)C)[C@@H](C)O)C(C)C)C(=O)N[C@@H](C)C(=O)N[C@@H](Cc1c[nH]c2ccccc12)C(=O)N[C@@H](CC(=O)O)C(=O)N[C@@H](Cc1c[nH]cn1)C(=O)N[C@@H](CCCCN)C(=O)NCC(=O)N[C@H](C(=O)N[C@H](C(=O)N[C@@H](CCSC)C(=O)N[C@@H](CCCCN)C(=O)N[C@@H](Cc1c[nH]c2ccccc12)C(=O)N[C@@H](CC(C)C)C(=O)N[C@@H](CC(N)=O)C(=O)N[C@@H](C)C(=O)NCC(=O)N[C@@H](CCC(N)=O)C(=O)N[C@H](C(=O)N[C@@H](Cc1ccccc1)C(=O)N[C@H](C(=O)N[C@@H](Cc1c[nH]c2ccccc12)C(=O)N[C@H](C(=O)N[C@@H](Cc1ccc(O)cc1)C(=O)N[C@@H](CCC(=O)O)C(=O)N[C@@H](CCC(N)=O)C(=O)N[C@H](C(=O)N[C@@H](CCCCN)C(=O)N[C@@H](CCCCN)C(=O)N[C@@H](CC(C)C)C(=O)N[C@@H](Cc1c[nH]c2ccccc12)C(=O)N[C@H](C(=O)O)[C@@H](C)O)[C@@H](C)CC)C(C)C)[C@@H](C)O)[C@@H](C)O)[C@@H](C)CC)[C@@H](C)O", "organism": "Streptococcus equi", "conditions": "37 °C, non-formylated synthetic", "MIC": "62.5 µg/mL"}
{"SMILES": "CC[C@H](C)CCCCC(=O)N[C@@H](CCN)C(=O)N[C@H](C(=O)N[C@@H](CCN)C(=O)N[C@H]1CCNC(=O)[C@H]([C@@H](C)O)NC(=O)[C@H](CCN)NC(=O)[C@H](CCN)NC(=O)[C@H](CC(C)C)NC(=O)[C@@H](CC(C)C)NC(=O)[C@H](CCN)NC1=O)[C@@H](C)O", "organism": "Moraxella catarrhalis", "test": "broth microdilution", "test system": "BNCC 337550", "MIC": "> 64 µg/mL"}
{"SMILES": "CC(C)C[C@H](NC(=O)[C@H](CCCNC(=N)N)NC(=O)[C@H](Cc1c[nH]c2ccccc12)NC(=O)[C@H](CCCNC(=N)N)NC(=O)[C@H](Cc1c[nH]c2ccccc12)NC(=O)[C@H](Cc1c[nH]c2ccccc12)NC(=O)[C@H](Cc1c[nH]c2ccccc12)NC(=O)[C@H](CCCNC(=N)N)NC(=O)[C@H](Cc1c[nH]c2ccccc12)NC(=O)[C@@H](N)CCCNC(=N)N)C(N)=O", "organism": "Candida albicans", "test": "broth microdilution", "test system": "CGMCC 2.209, RPMI 1640-MOPS", "conditions": "48 h, 30 °C, added: ZnCl2 8 µM", "MIC": "8 µM"}
{"SMILES": "CC(C)C[C@H](NC(=O)CNC(=O)CNC(=O)CNC(=O)[C@H](Cc1ccc(O)cc1)NC(=O)[C@H](CC(C)C)NC(=O)[C@@H](NC(=O)CNC(=O)[C@H](Cc1ccc(O)cc1)NC(=O)[C@H](CCCCN)NC(=O)[C@H](CC(N)=O)NC(=O)[C@@H](NC(=O)[C@H](CCCCN)NC(=O)[C@H](Cc1c[nH]c2ccccc12)NC(=O)CN)[C@@H](C)O)[C@@H](C)O)C(=O)N[C@@H](CCCCN)C(=O)N[C@@H](CCCCN)C(=O)N[C@@H](CC(C)C)C(=O)N[C@@H](CC(C)C)C(=O)N[C@@H](CC(C)C)C(=O)N[C@@H](CC(C)C)C(=O)N[C@@H](CC(C)C)C(=O)N[C@@H](CCCCN)C(=O)N[C@@H](CCCCN)C(=O)N[C@@H](CC(C)C)C(=O)NCC(=O)O", "organism": "Staphylococcus aureus", "test system": "USA300", "conditions": "added: 8 µM ZnCl2", "MIC": "32 µg/mL"}
{"SMILES": "N=C(N)NCCC[C@H](NC(=O)CN)C(=O)N[C@@H](Cc1c[nH]c2ccccc12)C(=O)N[C@@H](CCCNC(=N)N)C(=O)N[C@@H](Cc1c[nH]c2ccccc12)C(=O)N[C@@H](Cc1c[nH]c2ccccc12)C(=O)N[C@@H](Cc1c[nH]c2ccccc12)C(=O)N[C@@H](CCCNC(=N)N)C(=O)N[C@@H](Cc1c[nH]c2ccccc12)C(=O)N[C@@H](CCCNC(=N)N)C(=O)N[C@@H](Cc1ccccc1)C(N)=O", "organism": "Candida albicans", "test": "broth microdilution", "test system": "alveolar fluid isolate, RPMI 1640-MOPS", "conditions": "48 h, 30 °C", "MIC": "16 µM"}
{"SMILES": "CC[C@H](C)[C@H](NC(=O)[C@H](C)NC(=O)[C@H](CCCCN)NC(=O)[C@H](CC(C)C)NC(=O)[C@H](C)NC(=O)[C@@H](NC(=O)[C@H](Cc1c[nH]cn1)NC(=O)[C@H](CC(C)C)NC(=O)[C@@H](NC(=O)[C@@H](NC(=O)[C@H](CCCCN)NC(=O)[C@H](C)NC(=O)[C@H](C)NC(=O)[C@H](CO)NC(=O)[C@H](CCCCN)NC(=O)[C@H](Cc1ccccc1)NC(=O)[C@@H](NC(=O)[C@H](CCCCN)NC(=O)[C@H](CC(C)C)NC(=O)[C@H](Cc1ccccc1)NC(=O)[C@H](CO)NC(=O)[C@H](CCCCN)NC(=O)[C@H](Cc1c[nH]c2ccccc12)NC(=O)[C@H](CCCCN)NC(C)=O)[C@@H](C)O)[C@@H](C)O)C(C)C)[C@@H](C)O)C(=O)N[C@@H](CO)C(=O)N[C@@H](CO)C(N)=O", "organism": "Klebsiella pneumoniae", "conditions": "geometric mean of 80 strains", "MIC": "6.22 µg/mL"}
{"SMILES": "C[C@@H](O)[C@H]1C(=O)N2C(C(=O)O)=C(SCCN=CN)C[C@H]12", "organism": "Klebsiella pneumoniae", "test system": "K3", "conditions": "after induction, added: ceftazidime-avibactam, avibactam fixed", "MIC": "32 µg/mL"}
{"SMILES": "CC(C)[C@H](NC(=O)[C@H](CCCNC(=N)N)NC(=O)[C@H](Cc1c[nH]c2ccccc12)NC(=O)[C@H](CCCNC(=N)N)NC(=O)[C@H](Cc1c[nH]c2ccccc12)NC(=O)[C@H](Cc1c[nH]c2ccccc12)NC(=O)[C@H](Cc1c[nH]c2ccccc12)NC(=O)[C@H](CCCNC(=N)N)NC(=O)[C@H](Cc1c[nH]c2ccccc12)NC(=O)[C@@H](N)CCCNC(=N)N)C(N)=O", "organism": "Candida albicans", "test": "broth microdilution", "test system": "CGMCC 2.209, RPMI 1640-MOPS", "conditions": "48 h, 30 °C, added: CaCl2 2 mM", "MIC": "64 µM"}
{"SMILES": "CC[C@H](C)C[C@H](C)CCCCCCCCC(=O)N[C@H]1C[C@@H](O)[C@@H](NCCN)NC(=O)[C@@H]2[C@@H](O)CCN2C(=O)[C@H]([C@H](O)CCN)NC(=O)[C@H]([C@H](O)[C@@H](O)c2ccc(O)cc2)NC(=O)[C@@H]2C[C@@H](O)CN2C(=O)[C@H]([C@@H](C)O)NC1=O", "organism": "Candida parapsilosis", "test": "broth dilution", "test system": "ATCC 22099", "conditions": "48 h, 37 °C", "MIC": "4 µg/mL"}
{"SMILES": "CC(C)C[C@H](NC(=O)[C@H](Cc1c[nH]c2ccccc12)NC(=O)[C@H](CC(C)C)NC(=O)[C@@H](NC(=O)[C@H](CC(C)C)NC(=O)[C@H](CCCNC(=N)N)NC(=O)[C@@H](N)CCCNC(=N)N)[C@@H](C)O)C(=O)N[C@H](C(=O)N[C@@H](CC(C)C)C(=O)N[C@@H](CCCNC(=N)N)C(=O)N[C@@H](CCCNC(=N)N)C(N)=O)[C@@H](C)O", "organism": "Candida parapsilosis", "test system": "CGMCC 2.399", "conditions": "48 h, 37 °C", "MIC": "4 µM"}
{"note": "A few entries again:"}
{"SMILES": "CO[C@H]1/C=C/O[C@@]2(C)Oc3c(C)c(O)c4c(c3C2=O)C2=NC3(CCN(CCn5c([N+](=O)[O-])cnc5C)CC3)NC2=C(NC(=O)/C(C)=C\\C=C\\[C@H](C)[C@H](O)[C@@H](C)[C@@H](O)[C@@H](C)[C@H](OC(C)=O)[C@@H]1C)C4=O", "organism": "Helicobacter pylori", "test": "agar dilution", "test system": "metronidazole-resistant rdxA R16S", "MIC": "≤ 0.002 µg/mL"}
{"SMILES": "CC[C@H](C)C[C@H](C)CCCCCCCCC(=O)N[C@H]1C[C@@H](O)[C@@H](NCCN)NC(=O)[C@@H]2[C@@H](O)CCN2C(=O)[C@H]([C@H](O)CCN)NC(=O)[C@H]([C@H](O)[C@@H](O)c2ccc(O)cc2)NC(=O)[C@@H]2C[C@@H](O)CN2C(=O)[C@H]([C@@H](C)O)NC1=O", "organism": "Candida parapsilosis", "test": "broth dilution", "test system": "ATCC 22099", "conditions": "48 h, 37 °C", "MIC": "4 µg/mL"}
